Published values pooled from the literature.
Each line is one published result; not all experiments were run side by side.
B1: enzyme (Trypanosoma brucei, UniProt Q9GV41); chain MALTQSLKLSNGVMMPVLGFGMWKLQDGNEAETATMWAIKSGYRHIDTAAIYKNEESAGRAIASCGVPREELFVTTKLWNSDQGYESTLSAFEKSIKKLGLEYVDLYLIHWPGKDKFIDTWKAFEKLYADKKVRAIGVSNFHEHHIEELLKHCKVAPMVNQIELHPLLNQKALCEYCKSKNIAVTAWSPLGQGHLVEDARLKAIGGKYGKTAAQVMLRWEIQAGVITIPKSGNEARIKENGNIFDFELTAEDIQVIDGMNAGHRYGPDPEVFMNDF
B2: enzyme (Klebsiella pneumoniae, UniProt A6TH53); chain MAAKDVKFGNDARVKMLRGVNVLADAVKVTLGPKGRNVVLDKSFGAPTITKDGVSVAREIELEDKFENMGAQMVKEVASKANDAAGDGTTTATVLAQAIVNEGLKAVAAGMNPMDLKRGIDKAVLAAVEELKALSVPCSDSKAIAQVGTISANSDETVGKLIAEAMDKVGKEGVITVEDGTGLEDELDVVEGMQFDRGYLSPYFINKPDTGAVELESPFILLADKKISNIREMLPVLEAVAKAGKPLVIIAEDVEGEALATLVVNTMRGIVKVAAVKAPGFGDRRKAMLQDIATLTGGTVISEEIGMELEKATLEDLGQAKRVVINKDTTTIIDGVGEESAIQGRVAQIRKQIEEATSDYDREKLQERVAKLAGGVAVIKVGAATEVEMKEKKARVDDALHATRAAVEEGVVAGGGVALVRVAAKLAGLTGQNEDQNVGIKVALRAMEAPLRQIVSNAGEEPSVVANNVKAGDGNYGYNAATEEYGNMIDFGILDPTKVTRSALQYAASVAGLMITTECMVTDLPKGDAPDLGAAGGMGGMGGMGGMM
Sequence of UniProt Q9I4K6 (whole entry, looked up): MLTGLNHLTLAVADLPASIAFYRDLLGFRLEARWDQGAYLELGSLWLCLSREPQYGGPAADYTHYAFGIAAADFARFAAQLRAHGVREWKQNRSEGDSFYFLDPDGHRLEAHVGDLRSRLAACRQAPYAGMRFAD
Sequence of UniProt A5K9W3 (whole entry, looked up): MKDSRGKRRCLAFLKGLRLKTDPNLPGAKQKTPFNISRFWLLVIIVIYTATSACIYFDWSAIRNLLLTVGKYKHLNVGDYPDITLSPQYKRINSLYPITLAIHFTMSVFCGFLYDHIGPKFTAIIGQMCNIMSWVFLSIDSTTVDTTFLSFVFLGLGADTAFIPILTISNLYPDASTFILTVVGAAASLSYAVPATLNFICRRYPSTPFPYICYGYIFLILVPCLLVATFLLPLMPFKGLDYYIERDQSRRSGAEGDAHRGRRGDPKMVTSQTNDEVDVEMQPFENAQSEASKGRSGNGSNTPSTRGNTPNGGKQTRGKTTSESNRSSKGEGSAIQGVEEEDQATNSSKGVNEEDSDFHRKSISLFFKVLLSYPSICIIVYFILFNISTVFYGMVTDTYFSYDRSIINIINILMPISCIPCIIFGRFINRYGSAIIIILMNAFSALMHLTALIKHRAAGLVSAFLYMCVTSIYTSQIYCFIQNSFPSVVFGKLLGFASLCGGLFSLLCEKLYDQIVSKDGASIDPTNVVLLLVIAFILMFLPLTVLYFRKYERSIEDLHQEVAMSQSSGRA
Sequence of UniProt Q5JHM5 (whole entry, looked up): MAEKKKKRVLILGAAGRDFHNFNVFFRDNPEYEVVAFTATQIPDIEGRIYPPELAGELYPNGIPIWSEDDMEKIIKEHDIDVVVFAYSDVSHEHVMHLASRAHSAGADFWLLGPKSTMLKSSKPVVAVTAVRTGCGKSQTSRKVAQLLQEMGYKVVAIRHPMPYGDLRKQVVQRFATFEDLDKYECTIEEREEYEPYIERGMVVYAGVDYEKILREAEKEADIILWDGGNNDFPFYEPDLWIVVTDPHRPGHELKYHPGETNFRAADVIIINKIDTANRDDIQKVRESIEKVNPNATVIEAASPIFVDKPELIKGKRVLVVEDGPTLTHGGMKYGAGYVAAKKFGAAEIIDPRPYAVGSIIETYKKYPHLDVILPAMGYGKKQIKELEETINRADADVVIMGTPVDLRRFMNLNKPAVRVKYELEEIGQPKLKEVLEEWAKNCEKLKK

PDE (Schistosoma mansoni, UniProt C4QCZ2) — Km (Nc1ncnc2c1ncn2[C@@H]1O[C@H](COP(=O)(O)OP(=O)(O)O)[C@@H](O)[C@H]1O; steady-state kinetics; pH 9): 246 µM
pdc E473D (Zymomonas mobilis) — Km (CC(=O)C(=O)O; steady-state kinetics; pH 6, 30 °C): 150 µM
fcl (Campylobacter jejuni, UniProt F2X7A6) — Km (Nc1nc2c(ncn2[C@@H]2O[C@H](COP(=O)(O)OP(=O)(O)O[C@H]3O[C@@H](CCO)C(=O)[C@H](O)[C@@H]3O)[C@@H](O)[C@H]2O)c(=O)[nH]1; steady-state kinetics; pH 7.5, 25 °C, apparent): 0.99 µM
insulin human — fold change (measured: PCLO mRNA; EcoHIV-infected mouse, brain; i.p., dose not given; relative to: PBS): 1.07
enzyme (Nicotiana tabacum, UniProt A0A1S3XCJ5) — Km (Nc1ncnc2c1ncn2[C@@H]1O[C@H](COP(=O)(O)OP(=O)(O)OP(=O)(O)O)[C@@H](O)[C@H]1O; steady-state kinetics; pH 7.8, 30 °C): 810 µM
B1 (enzyme) — Km ([H][C@]12C[C@]([H])(OO1)[C@H](C/C=C\CCCC(=O)O)[C@H]2/C=C/[C@@H](O)CCCCC; steady-state kinetics; pH 7, 37 °C): 1.3 µM
enzyme (Thermococcus kodakarensis, UniProt Q5JHM5) — Km (N=C(N)NCCC[C@H](N)C(=O)O; steady-state kinetics; pH 7.5, 80 °C): 2300 µM
enzyme (Plasmodium vivax, UniProt A5K9W3) — Km (N=C(N)NCCC[C@H](N)C(=O)O; steady-state kinetics; pH 7.4, not purified): 1.5 µM
B2 (enzyme) — Km (Nc1ncnc2c1ncn2[C@@H]1O[C@H](COP(=O)(O)OP(=O)(O)OP(=O)(O)O)[C@@H](O)[C@H]1O; steady-state kinetics; pH 7.4, 24 °C, apparent): 25.6 µM
fosA (Pseudomonas aeruginosa, UniProt Q9I4K6) — Km (C[C@@H]1O[C@@H]1P(=O)(O)O; steady-state kinetics): 200 µM

Repeated from above:
enzyme (Plasmodium vivax, UniProt A5K9W3) — Km (N=C(N)NCCC[C@H](N)C(=O)O; steady-state kinetics; pH 7.4, not purified): 1.5 µM
